{"data": "Results pooled from the literature", "note": "A part holds a random share of what one study measured. Positions count from the first letter of the parent shown."}
{"data": "Study 1", "target": "CCNA2, cyclin fold, Cln2 fusion (human)", "method": "yeast growth competition, sequencing", "medium": "yeast", "notes": "strong parent motif", "relative to": "not given", "reading": "higher = stronger binding", "starting sequence": "GMNC docking peptide (human); KNAKRNLSSEFAN"}
{"Change": "S8H", "normalised enrichment score": 3.36}
{"Change": "S9E", "normalised enrichment score": 5.1}
{"Change": "S8P", "normalised enrichment score": 0.48}
{"Change": "F11A", "normalised enrichment score": 0.796}
{"Change": "K4P", "normalised enrichment score": 1.02}
{"Change": "R5L", "normalised enrichment score": 0.15}
{"Change": "A12M", "normalised enrichment score": 4.77}
{"data": "Study 2", "target": "RNA binding protein fox-1 homolog 2, RRM domain, GST-SBP tag (RBFOX2, Homo sapiens, UniProt O43251-10, residues 100-194)", "method": "RNA Bind-n-Seq", "form": "RNA", "medium": "in vitro", "concentration": "365 nM", "notes": "natural RNA segment, single round, ends assumed", "relative to": "no-protein control", "reading": "higher = stronger binding", "all sequences stand within": "GGGAGUUCUACAGUCCGACGAUC … UGGAAUUCUCGGGUGCCAA", "Construct (chain)": "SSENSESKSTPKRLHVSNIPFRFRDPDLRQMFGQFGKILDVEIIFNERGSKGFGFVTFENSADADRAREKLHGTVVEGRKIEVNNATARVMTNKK"}
{"Strand": "CCGGAGGGAAGAGAACAUAGUGAAGAUUCCCGCCUUUGGGGAGGUCUGGACCACCCAGGGCCUCCACUGCCACCUUGGCUGGCAAGGGAGAAAUGUGUUGUGUUGUCUUA", "RBNS enrichment (R)": 0.711}
{"Strand": "GAAUGUACUUUGUAUAAUUUUAGUGGAAUUAUUGUUAUUAAAGAGAAUAAAAUUUUUACAAUCAUAACUGGCUUUUUCUAAGUAACUAGCUGCAAGAAGGAAUGUAUAUC", "RBNS enrichment (R)": 0.722}
{"Strand": "UUCUCAGAGCCAAGUCCUCCCUCUCUACUGGAGUGGAAGGUCUAUUGGCCAACAAUCCUUUCUGCCCACUUCCCCUUCCCCAAUUACUAUUCCCUUUGACUUCAGCUGCC", "RBNS enrichment (R)": 0.732}
{"Strand": "CUGAGGUCUGUGCUUGAAAGCCGUCCGAAGGCAUUCUUGUUAGCUUUGCUUUUCUCCCCAUAUCCCAAGGCGAAGCGCUGAGAUUCUUCCAUCUAAAAAACCCUCGACCC", "RBNS enrichment (R)": 0.627}
{"Strand": "GACCUGUGGCCUGGUGGGACCAGGGCUUCAGGAGCCACAGGAUGGUACAAGCCUCGACAGACACGUUCUGUCAGCACUUGCCCCGGCCACCUCAUUCUGGUUUCAGUGUU", "RBNS enrichment (R)": 0.241}
{"Strand": "CAAUUGGUGCAUAAAUGAAAGUAGUACUGUAUACUUGAAACUGUUUAAGUACAAGUUGAACAAAAAUUAUGAAAAGGUAUAUUUGCUUCUCGGGAAAGCAAAGAAGCUGC", "RBNS enrichment (R)": 0.521}
{"Strand": "UUCGAGGCCUGUGUCUGGUGGGAGACAAGGCUGUGUGUCUCUGUGUGUGUAAACAAACGUGCACGUGCUCGCACUUAGCUGCGCAGGCUUUCUGUGCAUGAACUAGAAAA", "RBNS enrichment (R)": 1.45}
{"Strand": "UGUGGGUUUAUCCAAGAUGAGGAAGAUUUCACCUGCUGUUUAAUAGACUUGGGGCCAUGUGCCUCCCCACACAUGGGCAAGGACAGGUGGAAUGUCGGGACCACACUGUG", "RBNS enrichment (R)": 0.398}
{"data": "Study 3", "target": "Ras GTPase-activating protein-binding protein 1, full length (G3BP1, Homo sapiens, UniProt Q13283)", "method": "RNA Bind-n-Seq", "form": "RNA", "medium": "in vitro", "concentration": "200 nM", "notes": "whole 134-nt RNA, ends assumed", "together with": "150 mM KCl", "relative to": "input library", "reading": "higher = stronger binding", "all sequences stand within": "GGGAGUUCUACAGUCCGACGAUC … UGGAAUUCUCGGGUGUCAAGG", "UniProt Q13283, sequence (whole entry, looked up)": "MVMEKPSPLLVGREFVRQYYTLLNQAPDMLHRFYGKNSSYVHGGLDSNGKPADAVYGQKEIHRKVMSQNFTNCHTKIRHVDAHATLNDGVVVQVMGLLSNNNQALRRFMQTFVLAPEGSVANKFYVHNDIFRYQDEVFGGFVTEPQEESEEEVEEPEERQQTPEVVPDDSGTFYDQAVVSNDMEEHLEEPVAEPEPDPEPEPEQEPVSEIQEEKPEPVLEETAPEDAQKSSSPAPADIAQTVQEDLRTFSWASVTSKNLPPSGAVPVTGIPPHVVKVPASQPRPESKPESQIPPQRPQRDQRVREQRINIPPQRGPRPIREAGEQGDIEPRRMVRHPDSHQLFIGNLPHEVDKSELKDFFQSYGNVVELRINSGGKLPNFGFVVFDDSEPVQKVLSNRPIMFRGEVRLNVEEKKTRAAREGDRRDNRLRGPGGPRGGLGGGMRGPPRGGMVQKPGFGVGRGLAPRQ"}
{"Strand": "CACAGACAACACGCACCCACACAGACACAGAGGGAAGGGGUUGGGAAAAGGACAGGGUGCACAGCAGGGCGGGGUAGGACCCCAGCCCCU", "log2 enrichment": 1.2}
{"Strand": "CACAGACAACACGCACCCACACAGACACAGAGGGAAGGGGUUGGGAUGGGGACAGGGUGCACAGCAGGGCGGGGUAGGACCUCAGCCCCU", "log2 enrichment": 1.7}
{"Strand": "UUGUCCCGGAUGGGCAGCCUGCGGGCUCCCGUGGACGAGGACCGCCUGUCCCCGCUGGUGGCGGCCGACUCGCUCCUGGAGCAUGUGCGG", "log2 enrichment": -0.754}
{"Strand": "AGUCCUGUGCUACACAUCGUAUGUACCGAAUCGGGGAAAAGGAAAAGGGAAAAGGGGAAAGUAUUAUGUUACGCCGUUCGGAUCUGCACU", "log2 enrichment": -0.373}
{"Strand": "UCCUGUGCUACACAUCGUAUGUACCGAAUCGGGAAAAAAGGGGAAAAAAGGGAAAAAAGGAAAGUAUUAUGUUACGCCGUUCGGAUCUGC", "log2 enrichment": -0.486}
{"Strand": "AGUCCUGUGCUACACAUCGUAUGUACCGAAUCGGGGAGGGGUUUGGGGUUUUUGGGGAAAGUAUUAUGUUACGCCGUUCGGAUCUGCACU", "log2 enrichment": 0.337}
{"Strand": "CUGUGCUACACAUCGUAUGUACCGAAUCGGGUUUUUUUGGGGUUUUUUUGGUUUUUUUGGGGAAAGUAUUAUGUUACGCCGUUCGGAUCU", "log2 enrichment": -1}
{"Strand": "UGGCCCUGGUGGCAUGCGGGGAGGAAGAGGUGGCCUCAUGGAUCGUGGUGGUCCCGGUGGAAUGUUCAGCGGUGGCCGUGGUGGAGACAG", "log2 enrichment": 0.0788}
{"Strand": "UGUGCUACACAUCGUAUGUACCGAAUCGGGGUUUUUGGGGUUUUUUUGGGGUUUUUUUGGGGAAAGUAUUAUGUUACGCCGUUCGGAUCU", "log2 enrichment": -0.427}
{"data": "Further values, each from its own experiment"}
{"Molecule": "PhoQ, residues 284 288 289 292 302 303 TSTLRA", "target": "PhoP, residues 12 14 15 18 19 SEGLL (Escherichia coli, UniProt P23836)", "assay": "Sort-seq, measured: YFP reporter", "system": "E. coli", "conditions": "PhoQ-PhoP variant library, together with: 10 µM Mg2+", "scale": "relative to: high Mg2+ state, higher = stronger signaling", "endpoint": "fold induction", "value": 1.3}
{"note": "Excerpt of the above (study 1):"}
{"Change": "F11A", "normalised enrichment score": 0.796}
{"Change": "K4P", "normalised enrichment score": 1.02}
{"Change": "R5L", "normalised enrichment score": 0.15}
{"Change": "A12M", "normalised enrichment score": 4.77}
